Measured values gathered from unrelated publications.
Each line is one published result; not all experiments were run side by side. Values joined by “and” are separate records of one study, mostly repeats; a detail may differ. ± marks the error that the study gave.

| Substance | target or system | assay | system | setting | how to read | quantity | result |
| --- | --- | --- | --- | --- | --- | --- | --- |
| glucagon | – | – | mouse | dose not given, 6 h | – | plasma free fatty acids | 1.07 mmol/L and 1.26 mmol/L and 1.11 mmol/L and 0.995 mmol/L and 0.911 mmol/L |
| heparin sodium | – | – | human | intravenous infusion, 8 IU/kg/h, day 1 to 6 | reference: baseline | time to Emax of aPTT ratio | 84 h |
| insulin degludec | – | euglycaemic hyperinsulinaemic clamp | healthy Chinese male humans | subcutaneous, 0.4 IU/kg, 24 h, 3 FC level, single dose, reference formulation | – | maximum glucose infusion rate | 2.15 ± 1 mg/kg/min |
| CpG-ODN 1826 | – | – | mouse B16-F10 tumour, tumour | dose not given, day 8 | reference: CD8 T cells | LAG-3+ cells | 15 ± 4.18% |
| YEQDPWGVKWWY | – | – | peptide, mouse, CP model, serum | 0.154 µmol/kg, 4 weeks | – | serum IL-6 | decreased |
| thimet oligopeptidase | – | co-immunoprecipitation | human RBC cytosol | DMTMM crosslinker, unit not given, added: Band 3 peptide 1-56 bait | reference: negative control | co-IP enrichment | 448000 |
| QYFARMCSV | – | CD8 T cell response | peptide, naive splenocytes as APCs, mouse | 2 µg/mL, 48 h | – | IFN-γ ELISpot response | negative |
| tripeptidyl peptidase 2 | – | co-immunoprecipitation | human RBC cytosol | unit not given, added: Band 3 peptide 1-56 bait | reference: negative control | co-IP enrichment | 0 |
| QYGAVPGSV | – | CD8 T cell response | peptide, naive splenocytes as APCs, mouse | 2 µg/mL, 48 h | – | IFN-γ ELISpot response | negative |
| liraglutide | – | – | Wistar rat, female, diet-induced obese | subcutaneous, dose not given, last 5 days of treatment | – | food intake | 62.1 ± 7.4 kcal/day |
| YFARMCSVM | – | CD8 T cell response | peptide, naive splenocytes as APCs, mouse | 2 µg/mL, 48 h | – | IFN-γ ELISpot response | negative |
| cotadutide | – | – | C57BL/6J mouse, AMLN diet NASH model | dose not given, terminal | – | plasma AST | 213 ± 35 U/L |
| somatropin | – | – | Turner syndrome patients | s.c., 0.3 mg/kg/week, mean 22.2 months, mean | – | height at end of therapy | 1.35 m |
| insulin aspart | – | euglycaemic glucose clamp | human, adults with type 1 diabetes, up to 35 years | subcutaneous, 0.2 U/kg | – | onset of action | 26.3 min |
| maraviroc | – | ELISA | HIV-infected mice, plasma | i.p., 120 mg/kg twice daily, 3 weeks post infection | reference: HIV-infected untreated mice, increase | Aβ40 level | 1.67 fold |
| adenosylhomocysteinase | – | co-immunoprecipitation | human RBC cytosol | DMTMM crosslinker, unit not given, added: Band 3 peptide 1-56 bait | reference: negative control | co-IP enrichment | 3950 |
| Pam2CSK4 | – | – | APP/PS1 mouse, cortex | local injection, dose not given, unit not given | reference: injected over adjacent side | Thioflavin S plaque level | 0.753 and 0.883 and 1.04 |

| Substance | target or system | assay | system | setting | how to read | quantity | result |
| --- | --- | --- | --- | --- | --- | --- | --- |
| SEC11A | – | co-immunoprecipitation | human RBC membrane | DMTMM crosslinker, unit not given, added: Band 3 peptide 1-56 bait | reference: negative control | co-IP enrichment | 12.8 |
| SPFGIVKAL | – | CD8 T cell response | peptide, naive splenocytes as APCs, mouse | 2 µg/mL, 48 h | – | IFN-γ ELISpot response | negative |
| semaglutide | – | – | DIO male Wistar rats | dose not given, 7 weeks | – | fasting blood glucose | 95 ± 3 mg/dL |
| human GAPDH | – | co-immunoprecipitation | human RBC membrane | DMTMM crosslinker, unit not given, added: Band 3 peptide 1-56 bait | reference: negative control | co-IP enrichment | 123 |
| FGASVQEFF | – | CD8 T cell response | peptide, naive splenocytes as APCs, mouse | 2 µg/mL, 48 h | – | IFN-γ ELISpot response | negative |
| CCT4 | – | co-immunoprecipitation | human RBC membrane | DSSO crosslinker, unit not given, added: Band 3 peptide 1-56 bait | reference: negative control | co-IP enrichment | 3.98 |
| RPDWLVNRL | – | CD8 T cell response | peptide, naive splenocytes as APCs, mouse | 2 µg/mL, 48 h | – | IFN-γ ELISpot response | negative |
| insulin | – | – | women with gestational diabetes | dose not given | – | newborn birth weight | 3.07 ± 0.37 kg |
| human desmoplakin | – | co-immunoprecipitation | human RBC membrane | no crosslinker, unit not given, added: Band 3 peptide 1-56 bait | reference: negative control | co-IP enrichment | 0 |
| GSGAGPETLV | human MAGI1-2/6 PDZ construct (MBP fusion) | automated holdup | peptide, crude extract | concentration not given, uncorrected, unit not given | reference: biotin control resin, higher = stronger binding | binding intensity | 0.326 |
| insulin degludec | – | euglycemic clamp, chemiluminescence | healthy human volunteers, C-peptide reduction at least 50%, serum | subcutaneous, 0.4 IU/kg | – | C-peptide, mean, post dose | 0.82 ± 0.28 ng/mL |
| calcium | – | ion current, two-electrode voltage clamp | Xenopus oocytes | 1.8 mM, 80 mV, added: niflumic acid present | – | desensitization time constant | 37.7 s and 7.16 s and 9.86 s and 21 s and 36 s |
| hemoglobin beta | – | co-immunoprecipitation | human RBC cytosol | DSSO crosslinker, unit not given, added: Band 3 peptide 1-56 bait | reference: negative control | co-IP enrichment | 165000 |
| KGPIVLLNV | – | CD8 T cell response | peptide, naive splenocytes as APCs, mouse | 2 µg/mL, 48 h | – | IFN-γ ELISpot response | negative |
| difelikefalin | – | – | Japanese haemodialysis patients with pruritus | intravenous, 1.0 µg/kg, 8 weeks | – | PGIC minimally improved | 18.3% |
| GSGAGSETSV | human SCRIB PDZ3-4 tandem (MBP fusion) | automated holdup | peptide, crude extract | concentration not given, uncorrected, unit not given | reference: biotin control resin, higher = stronger binding | binding intensity | 0.861 |
| FPMISKLRY | – | CD8 T cell response | peptide, naive splenocytes as APCs, mouse | 2 µg/mL, 48 h | – | IFN-γ ELISpot response | negative |

Excerpt of the above:
| Substance | target or system | assay | system | setting | how to read | quantity | result |
| --- | --- | --- | --- | --- | --- | --- | --- |
| hemoglobin beta | – | co-immunoprecipitation | human RBC cytosol | DSSO crosslinker, unit not given, added: Band 3 peptide 1-56 bait | reference: negative control | co-IP enrichment | 165000 |
| YEQDPWGVKWWY | – | – | peptide, mouse, CP model, serum | 0.154 µmol/kg, 4 weeks | – | serum IL-6 | decreased |
| Pam2CSK4 | – | – | APP/PS1 mouse, cortex | local injection, dose not given, unit not given | reference: injected over adjacent side | Thioflavin S plaque level | 0.753 and 0.883 and 1.04 |
